Experimental data of several laboratories.
Each numbered part is a random draw from the data of one study; scales do not carry over between parts. Changes are numbered by the printed parent chain.

Set 1 — target: ATF5, bZIP domain (human); technique: DHFR protein complementation; sample: yeast; reference: wild-type JUN-FOS pair; direction: higher = stronger binding; quantity: binding fitness
Setting: single substitutions, most at no-binding floor
Parent: JUN, bZIP domain (human); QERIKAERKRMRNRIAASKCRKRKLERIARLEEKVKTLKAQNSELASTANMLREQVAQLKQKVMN; partner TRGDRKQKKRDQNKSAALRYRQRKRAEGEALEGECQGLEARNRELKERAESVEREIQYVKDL
E54N: -1.53 natural log
R53P: -1.46 natural log
I28T: -1.4 natural log
N42A: -1.38 natural log
V35A: -1.54 natural log
E32F: -1.5 natural log
K34H: -1.53 natural log
E33V: -1.42 natural log
R53Q: -1.44 natural log
A57Q: -1.61 natural log
E54G: -1.4 natural log
K36Y: -1.24 natural log
A40W: -1.44 natural log
L52V: -1.51 natural log
L52Y: -1.52 natural log
E33A: -1.35 natural log
I28H: -1.28 natural log
A49V: -1.43 natural log
A49P: -1.54 natural log
K36Q: -1.37 natural log

Set 2 — technique: RNA Bind-n-Seq; form: RNA; sample: in vitro; concentration: 1 µM; setting: whole 134-nt RNA, ends assumed; added: 150 mM KCl; reference: input library; direction: higher = stronger binding; quantity: log2 enrichment
Target: Ras GTPase-activating protein-binding protein 1, RRM domain (G3BP1, Homo sapiens, UniProt Q13283)
UniProt Q13283, sequence (whole entry, looked up): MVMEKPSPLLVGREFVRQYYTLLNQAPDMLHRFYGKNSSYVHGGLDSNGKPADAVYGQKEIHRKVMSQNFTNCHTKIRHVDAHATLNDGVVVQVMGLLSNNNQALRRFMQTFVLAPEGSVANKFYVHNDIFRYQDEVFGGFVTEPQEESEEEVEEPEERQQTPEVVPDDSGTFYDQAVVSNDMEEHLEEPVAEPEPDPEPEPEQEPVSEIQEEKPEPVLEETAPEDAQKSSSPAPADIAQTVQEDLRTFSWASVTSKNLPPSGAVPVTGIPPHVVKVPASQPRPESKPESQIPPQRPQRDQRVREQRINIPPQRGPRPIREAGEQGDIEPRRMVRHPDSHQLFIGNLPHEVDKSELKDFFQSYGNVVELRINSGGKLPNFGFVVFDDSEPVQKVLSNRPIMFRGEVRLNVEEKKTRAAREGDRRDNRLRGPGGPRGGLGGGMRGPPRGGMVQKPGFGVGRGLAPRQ
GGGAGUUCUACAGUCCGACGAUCACCAUGCAGGUGGGCAUCUUUGGGAAGUGGGGCAAGGGGGGGAUAGGGAGGGGGGUAACACUUUGGGAACCGGUGGUCCCAGGUCGUUUCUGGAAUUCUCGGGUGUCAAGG: 0.624
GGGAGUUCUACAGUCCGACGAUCGUCCUGUGCUACACAUCGUAUGUACCGAAUCGGGGAAAGGGGUUUGGGGUUUUUGGGGAAAGUAUUAUGUUACGCCGUUCGGAUCUGCACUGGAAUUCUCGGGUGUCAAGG: 1.54
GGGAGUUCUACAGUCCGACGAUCCCUGUGCUACACAUCGUAUGUACCGAAUCGGGUUUUUGGGUUUUUUUGGGAAAAAAAGGGAAAGUAUUAUGUUACGCCGUUCGGAUCUGCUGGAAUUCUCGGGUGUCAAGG: -0.209
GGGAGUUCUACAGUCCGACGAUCCAAGUCCUGUGCUACACAUCGUAUGUACCGAAUCGGGUGGGAAAAAAAGGGUGGGAAAGUAUUAUGUUACGCCGUUCGGAUCUGCACUUCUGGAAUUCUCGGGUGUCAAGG: 0.785
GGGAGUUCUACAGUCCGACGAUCAAGUCCUGUGCUACACAUCGUAUGUACCGAAUCGGGUUUUUGGGAGGGAAAAAGGGAAAGUAUUAUGUUACGCCGUUCGGAUCUGCACUUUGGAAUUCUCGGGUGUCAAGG: 0.278
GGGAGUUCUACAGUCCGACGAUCUGGCCCUGGUGGCAUGCGGGGAGGAAGAGGUGGCCUCAUGGAGCGUGGUGGUCCCGGUGGAAUGUUCAGAGGUGGCCGUGGUGGAGACAGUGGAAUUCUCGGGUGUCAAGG: 0.971
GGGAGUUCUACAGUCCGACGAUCUGUCUUUCCUGGUGACUAGGAUGUCGUCGGAGGAGGACAAGAGCGUGGAGCAGCCGCAGCCGCCGCCACCACCCCCCGAGGAGCCUGGAGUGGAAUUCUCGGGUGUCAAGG: -0.541
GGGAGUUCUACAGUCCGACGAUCUGGGUGAAGAGGGACAGUUACCUUCCUGUGGGCAGUCAUAAUCUCAAGGCGGCCGCCAAGGCCAAGCUAGGCUAUGAUCCCGUGGAGCUAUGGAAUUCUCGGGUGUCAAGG: -0.307
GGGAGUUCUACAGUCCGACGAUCUGGCCCUGGUGGCAUGCGGGGAGGAAGAGGUGGCCUCAUGGAUCGUGGUGCUCCCGGUGGAAUGUUCAGAGGUGGCCGUGGUGGAGACAGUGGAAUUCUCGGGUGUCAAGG: 0.608
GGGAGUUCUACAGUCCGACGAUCUGCACUGACUGGUGGUGUCAACCCAUGGCUCAACUGGAAGCACUGUGGAAGAAGAUGGAGGGUGUGGUAAGUCCAUCAGACCUGGGACCGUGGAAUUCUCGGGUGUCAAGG: -0.12

Set 3 — technique: universal PBM; form: double-stranded DNA, one strand shown; sample: in vitro; concentration: not given; direction: higher = stronger binding; quantity: E-score
Target: Sal-like protein 4, full length isoform B (SALL4, Homo sapiens, UniProt Q9UJQ4-2, residues 1-616)
Setting: 8-mer, flanks averaged, mean of replicates
ATGGAAGG: 0.0592
CGCATGAG: -0.138
AACGCATT: 0.18
GCTGTTTA: 0.151
AACTTTGC: -0.14
CGCCGCCC: -0.41
AATCCGCC: -0.182
AGACAATA: 0.319
ACTTGTGC: -0.0052
ACCGAACA: 0.0733
ATCCGGCG: -0.305
AATCGTCG: -0.0878
CTGCATTC: 0.0568
CTTAACGC: -0.169
AATTTAAC: 0.209
AATACATC: 0.249
CGATGCCC: -0.22
ATCATTGA: 0.232
GCCCATCA: -0.18
CATTGAAA: 0.161

Set 4 — target: CCND2, cyclin fold, Cln2 fusion (human); technique: yeast growth competition, sequencing; sample: yeast; setting: weak parent motif; reference: not given; direction: higher = stronger binding; quantity: normalised enrichment score
Parent: CDAN1 docking peptide (human); RGARSQLFPPTEA; partner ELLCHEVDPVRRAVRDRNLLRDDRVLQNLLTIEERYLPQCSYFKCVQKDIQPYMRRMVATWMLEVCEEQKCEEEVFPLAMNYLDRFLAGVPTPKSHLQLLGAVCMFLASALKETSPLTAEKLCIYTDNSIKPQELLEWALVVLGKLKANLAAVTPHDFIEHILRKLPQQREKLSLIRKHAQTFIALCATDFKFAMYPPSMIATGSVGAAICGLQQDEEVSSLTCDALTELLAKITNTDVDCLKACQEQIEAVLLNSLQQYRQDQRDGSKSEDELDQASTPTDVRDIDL
RGARSQLFAPTEA [P9A]: 0.167
RGARSQLFPATEA [P10A]: 0.46
RGARAQLFPPTEA [S5A]: 0.203
RGARSALFPPTEA [Q6A]: -0.541
RAARSQLFPPTEA [G2A]: -0.112

Set 5 — target: UBE2D1 UBC core domain (UniProt P51668); technique: yeast two-hybrid; sample: yeast; setting: mostly zero background; reference: not given; direction: higher = stronger interaction; quantity: lacZ reporter activity
B1: SYTL4 RING domain (UniProt Q96C24); chain RGSQHYSDRTCARCQESLGRLSPKTNTCRGCNHLVCRDCRIQESNGTWRCKVCAKEIELKKAT
B2: RBCK1 RING domain (UniProt Q9BYM8); chain SLVLNTEPAECPVCYSVLAPGEAVVLRECLHTFCRECLQGTIRNSQEAEVSCPFIDNTYSCSGKLLEREIK
B3: SH3RF1 RING domain (UniProt Q7Z6J0); chain DESALLDLLECPVCLERLDASAKVLPCQHTFCKRCLLGIVGSRNELRCPECRTLVGSGVEEL
B4: RNF121 RING domain (UniProt Q9H920); chain MPTKHLSDSVCAVCGQQIFVDVSEEGIIENTYRLSCNHVFHEFCIRGWCIVGKKQTCPYCKEKVDLKRMFS
Construct (chain): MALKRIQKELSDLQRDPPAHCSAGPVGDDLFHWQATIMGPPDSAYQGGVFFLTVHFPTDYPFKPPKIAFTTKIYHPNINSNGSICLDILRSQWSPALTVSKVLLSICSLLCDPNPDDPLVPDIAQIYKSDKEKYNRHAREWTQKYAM
PEDRESLKSACVVCLSSFKSCVFLECGHVCSCTECYRALPEPKKCPICRQAITRVIPLY (MUL1 RING domain (UniProt Q969V5)): 14100
GSRLQEINDVCAICYHEFTTSARITPCNHYFHALCLRKWLYIQDTCPMCHQKVYIEDDIK (RNF139 RING domain (UniProt Q8WU17)): 0
KETIKKTTKPCPRCHVPVEKNGGCMHMKCPQPQCRLEWCWNCGCEWNRVCMG (PRKN RING domain (UniProt O60260)): 0
B1 (SYTL4 RING domain): 0
FDGDVDPDLKCALCHKVLEDPLTTPCGHVFCAGCVLPWVVQEGSCPARCRGRLSAKELN (PDZRN3 RING domain (UniProt Q9UPQ7)): 0
B2 (RBCK1 RING domain): 0
B3 (SH3RF1 RING domain): 0
B4 (RNF121 RING domain): 0
YQNEVDDDLVCHICLQPLLQPLDTPCGHTFCYKCLRNFLQEKDFCPLDRKRLHFKLCKK (LNX2 RING domain (UniProt Q8N448)): 0

Set 6 — technique: DHFR PCA, deep sequencing; sample: yeast; added: (+)-ABA 58 µM; reference: wild-type fitted maximum; direction: higher = stronger binding; quantity: relative binding score
Target: ABI1, truncated, D143A, DHFR fusion (Arabidopsis thaliana)
Setting: methotrexate growth selection, single substitutions
Parent: PYL1, truncated, DHFR fusion (Arabidopsis thaliana); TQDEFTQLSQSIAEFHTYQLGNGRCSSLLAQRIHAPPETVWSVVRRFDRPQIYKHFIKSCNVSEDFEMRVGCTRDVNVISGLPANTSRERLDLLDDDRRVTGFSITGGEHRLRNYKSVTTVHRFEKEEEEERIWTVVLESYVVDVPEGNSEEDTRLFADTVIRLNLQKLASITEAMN; partner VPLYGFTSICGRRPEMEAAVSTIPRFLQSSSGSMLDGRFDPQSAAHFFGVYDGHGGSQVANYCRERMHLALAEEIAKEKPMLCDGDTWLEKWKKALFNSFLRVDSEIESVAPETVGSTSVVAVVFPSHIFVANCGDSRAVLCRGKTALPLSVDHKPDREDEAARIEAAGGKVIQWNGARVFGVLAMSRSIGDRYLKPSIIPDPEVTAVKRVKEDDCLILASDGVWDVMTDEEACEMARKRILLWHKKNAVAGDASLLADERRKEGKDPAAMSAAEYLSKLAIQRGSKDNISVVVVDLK
L164F: 81.8%
H110R: 16.2%
I57Y: 6.62%
T106H: 77%
N22M: 89.6%
A158G: 47.9%
S27R: 56.9%
R163M: 61.5%
Q51D: 61.5%
Y141F: 56.2%
